Assay results from different studies.

C[C@]12C=CC(=O)C=C1CC[C@@H]1[C@@H]2[C@@H](O)C[C@@]2(C)[C@H]1C[C@H]1O[C@@H](C3CCCCC3)O[C@]12C(=O)CO — AUC(0-tau) (children with asthma, serum; inhaled, 160 µg ciclesonide, day 7, geometric LS mean, per-protocol, spacer): 0.601 ng·h/mL
Cc1ccc(NC(=O)c2ccc(CN3CCN(C)CC3)cc2)cc1Nc1nccc(-c2cncc(-c3oncc3C)c2)n1 — AUC(0-tau) (healthy volunteers, plasma; oral, 200 mg once daily, day 1, 7-day dosing, mean): 87200 ng·h/mL
C=C(C)[C@@H]1CC[C@]2(NCCN3CCS(=O)(=O)CC3)CC[C@]3(C)[C@H](CC[C@@H]4[C@@]5(C)CC=C(C6=CC[C@@](CF)(C(=O)O)CC6)C(C)(C)[C@@H]5CC[C@]43C)[C@@H]12 — AUC(0-tau) (LC-MS/MS; HIV-1-infected treatment-naive adults, plasma; oral, 80 mg once daily, day 7, monotherapy): 11800 ng·h/mL
C=C(C)[C@@H]1CC[C@]2(NCCN3CCS(=O)(=O)CC3)CC[C@]3(C)[C@H](CC[C@@H]4[C@@]5(C)CC=C(C6=CC[C@@](CF)(C(=O)O)CC6)C(C)(C)[C@@H]5CC[C@]43C)[C@@H]12 — AUC(0-tau) (human; oral, 100 mg once daily, day 14, multiple ascending dose): 17500 ng·h/mL
COCCCCn1c(C(=O)N(CC(C)C)[C@@H]2CNC[C@H](C(=O)N3CCOCC3)C2)nc2ccccc21 — AUC(0-tau) (non-elderly human, plasma; oral, 80 mg once daily, day 7): 3940 ng·h/mL
Nc1cc(F)ccc1NC(=O)c1ccc(CNC(=O)/C=C/c2cccnc2)cc1 — AUC(0-tau) (Japanese patients, plasma; oral, 40 mg, cycle 1 day 1): 6760 ng·h/mL
C[C@@H](N)c1cc(Cl)ccc1Cn1c(=S)[nH]c(=O)c2[nH]ccc21 — AUC(0-tau) (healthy Chinese volunteers, plasma; oral, 5 mg once daily, day 1): 0.239 µM·h
O=c1[nH]c(=O)c(Cc2cccc(C(F)(F)F)c2)c([C@H]2CC[C@H](c3ccccc3)CC2)[nH]1 — AUC(0-tau) (human, plasma; oral, 150 mg once daily, day 14, geometric mean): 1940 ng·h/mL

Repeated from above:
C[C@@H](N)c1cc(Cl)ccc1Cn1c(=S)[nH]c(=O)c2[nH]ccc21 — AUC(0-tau) (healthy Chinese volunteers, plasma; oral, 5 mg once daily, day 1): 0.239 µM·h
